Assay results gathered from unrelated publications.
Numbers after ± are the reported error.

SMILES | assay | system | conditions | Tmax [min]
CCCC(=O)OCSc1ccccc1C(=O)NCCC(N)=O | – | Sprague-Dawley rat, male, plasma | intravenous, 50 mg/kg, first sampling time | 1.98
CN1CC[C@@]23CCCC[C@@H]2[C@@H]1Cc1ccc(O)cc13 | – | Wistar rat, both sexes, plasma | oral, 5 mg/kg DEM, DEM 2 h after pretreatment, with: TCE 100 mg/kg single pretreatment | 28.2 ± 13.2
O=c1nc(NO)ccn1[C@@H]1O[C@H](CO)[C@@H](O)[C@H]1O | microdialysis | rat, pregnant female, blood | intravenous, 100 mg/kg of molnupiravir, with: NBMPR 10 mg/kg i.v. | 43 ± 3
Cc1cccc(C)c1OCC(=O)N[C@@H](Cc1ccccc1)[C@@H](O)C[C@H](Cc1ccccc1)NC(=O)[C@H](C(C)C)N1CCCNC1=O | – | male Sprague-Dawley rats, plasma | oral, 160 mg/kg, alone | 360
O=C(CC(=O)c1ccccc1)c1ccccc1 | – | Sprague-Dawley rat, male, plasma | oral, 10 mg/kg, regular emulsion | 120 ± 81
NC1(c2ccccc2Cl)CCCCC1=O (racemic) | – | male Wistar rats, plasma | intraperitoneal, 40 mg/kg once daily for 14 days, day 14 | 34.8 ± 27.6
CNC(=O)c1ccc(-c2cnn3ccc(C(=O)N(C)c4ccc(Cl)c(C(=O)OC)c4)cc23)cc1 | – | Wistar rats, both sexes, plasma | oral, 50 mg/kg/day, day 1 | 30
COc1ccc2c(c1)[C@]13CCCC[C@@H]1[C@H](C2)N(C)CC3 | – | Wistar rat, both sexes, plasma | oral, 5 mg/kg, 2 h after pretreatment, with: single quinidine 2.5 mg/kg | 25.8 ± 13.8

Repeated from above:
SMILES | assay | system | conditions | Tmax [min]
NC1(c2ccccc2Cl)CCCCC1=O (racemic) | – | male Wistar rats, plasma | intraperitoneal, 40 mg/kg once daily for 14 days, day 14 | 34.8 ± 27.6
